Measurements pooled from the literature.
Numbered parts are unrelated; each lists some results of a single study. Changes are numbered by the printed parent chain.

Study 1
Target: Phosphate system positive regulatory protein PHO4, full length, GST-tagged (PHO4, Saccharomyces cerevisiae, UniProt P07270, residues 1-312)
Technique: competition protein-binding microarray
Form: double-stranded DNA, one strand shown
Sample: in vitro
Concentration: 2 µM
Setting: whole 60-bp probe, lowest competitor level
With: Cbf1 competitor, 0.05 µM
Direction: higher = stronger binding
Constant ends, left off below: … GTCTTGATTCGCTTGACGCTGCTG
Residues (chain): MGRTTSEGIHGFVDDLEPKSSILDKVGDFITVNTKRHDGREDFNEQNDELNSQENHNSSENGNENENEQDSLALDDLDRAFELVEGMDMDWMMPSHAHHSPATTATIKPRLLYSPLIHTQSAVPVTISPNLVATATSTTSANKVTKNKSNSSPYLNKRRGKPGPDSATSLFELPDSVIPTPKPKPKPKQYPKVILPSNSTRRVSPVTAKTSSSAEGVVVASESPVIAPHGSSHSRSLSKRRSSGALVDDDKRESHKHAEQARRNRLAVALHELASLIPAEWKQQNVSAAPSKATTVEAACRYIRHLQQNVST
Strand	fluorescence intensity [a.u.]
GGGCTTACTTTATCGCACGTGATGGTTCCCACAGTA	15900
GGCATTATCCTTCCGCACGTTTCTTGGATAATTCAT	13200
AGGCAAGAAAGAGGATGCGTGCCGAAGCTCGGTTAG	8390
CCTGACAACAAGAAGAGGATTGCAGAGCTTTTAGAC	3870
CCTCCTCCAGTTGAACACATGCAAGGTCGCCCACCA	9560
GTTTACTATTTATGCAACGTGGTAATAAGACTGTCT	13100
CGTTATTGATATCGGCACGCAATGGTACTGGGGCAA	7550
GATCTTCTGGGCCGTAGCGTGATGGGGTCTGTAAAT	5630
GATTTGTTGTGTAATAGCGTGATGGGCACTTGAATG	5880
ACCCGGGCAGCCGTTTCCGTGCCGAGGTTCCTCCGA	3320
ATTAGCTAGAATAATCGCGTGTGTTGTCTTGGCTGG	7950
AAATTACTAAGTTGCGACGTGGGTGACGCCGTATGA	6270
CTAACGAAGGTTTGCTATGTGGGTGACAAGCCAAGT	4710
CGGGGTTAAGTTTGTCACGGCACTTGCTTGCAGCAG	3950
TACTAGTACGTAAACAACGTGGTGAAGTAGAAAAAA	13100
CTCTTCAGAGGTAATTGCATGACAGCAAGATTCGCG	4220

Study 2
Target: ABI1, truncated, D143A, DHFR fusion (Arabidopsis thaliana)
Technique: DHFR PCA, deep sequencing
Sample: yeast
Setting: methotrexate growth selection, single substitutions
With: (+)-ABA 0 µM
Reference: wild-type fitted maximum
Direction: higher = stronger binding
Parent: PYL1, truncated, DHFR fusion (Arabidopsis thaliana); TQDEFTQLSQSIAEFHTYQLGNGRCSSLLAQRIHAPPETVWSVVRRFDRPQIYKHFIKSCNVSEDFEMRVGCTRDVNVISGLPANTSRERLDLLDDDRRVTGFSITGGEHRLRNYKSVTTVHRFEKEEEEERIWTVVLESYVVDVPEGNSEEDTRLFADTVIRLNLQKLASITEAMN; partner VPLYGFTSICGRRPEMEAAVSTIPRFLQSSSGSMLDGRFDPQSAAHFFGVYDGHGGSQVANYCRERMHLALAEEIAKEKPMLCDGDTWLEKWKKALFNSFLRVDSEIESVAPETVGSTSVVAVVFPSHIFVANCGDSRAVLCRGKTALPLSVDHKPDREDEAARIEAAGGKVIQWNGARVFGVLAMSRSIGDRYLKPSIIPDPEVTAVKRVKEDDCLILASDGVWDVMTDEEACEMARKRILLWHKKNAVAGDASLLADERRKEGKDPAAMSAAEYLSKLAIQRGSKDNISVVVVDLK
Change	relative binding score [%]
L166I	4.04
C72V	31.8
P50K	-3.66
T6W	27.9
E4G	2.1
R111Y	1.49
P36Y	3.09
D75Y	27.2
L94V	2.43
P37Q	3.37
G71K	-1.79
Q167N	4
F124R	3
A170H	-9.47

Study 3
Target: RING finger protein unkempt homolog, zinc fingers 1-6, GST-SBP tag (UNK, Homo sapiens, UniProt Q9C0B0, residues 30-357)
Chain of UniProt Q9C0B0 (30-357, looked up): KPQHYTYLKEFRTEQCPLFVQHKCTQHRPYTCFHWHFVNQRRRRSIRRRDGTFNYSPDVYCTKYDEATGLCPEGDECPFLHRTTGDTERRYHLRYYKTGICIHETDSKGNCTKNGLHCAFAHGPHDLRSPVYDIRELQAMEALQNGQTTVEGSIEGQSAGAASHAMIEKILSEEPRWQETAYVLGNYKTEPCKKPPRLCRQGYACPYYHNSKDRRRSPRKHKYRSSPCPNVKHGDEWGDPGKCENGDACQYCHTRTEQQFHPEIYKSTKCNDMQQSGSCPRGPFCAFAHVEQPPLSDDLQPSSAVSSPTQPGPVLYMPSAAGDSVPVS
Technique: RNA Bind-n-Seq
Form: RNA
Sample: in vitro
Concentration: not given
Setting: RNA with constant flanks, human-mouse chimeric sites, ends assumed
Reference: input RNA pool
Direction: higher = stronger binding
Constant ends, left off below: GGGAGUUCUACAGUCCGACGAUC … CAACAGAGGAUUGAGCAUCA
Strand	bound/input enrichment
GUGACUGACAUUAAAAUUUCCCCUCAGCAAAGAAGUGCAGUAGUCACCAUAAUUCCAUCUGUGGUGAGUGCCAGUCAGAUUGUGGAGCUGGUCCCAGACCUCAGUUUAGAUACUGGGACU	0.41 ratio
CUGAAAAACACAGAUAUCAAAGUUGUUGACUUUGGAAGUGCAACAUAUGAUGAUGAACAUCACAGUACUUUGGUGUCUACCCGGCACUACAGAGCUCCAGAGGUCAUUUUGGCUUUAGGU	0.316 ratio
UCUUUAAAAAAAAAAUUACCUUUUCUGCAUAUUAUAGCCCUCCCAUAGAUCCACGUUCAAGCUCAAAGAGCAAAGGCUUUGCACGGAGCUCAAACAUCUGAUGAAGAUUUUUGAGACAGA	5.36 ratio
CGCUGGCCCAAGCUGAUGGACUCUGAUGGCCUCCAUCUCUCAGGCACGUGUGCCUUCUCUUAGUUAUUGUUUUCGGGAUGUUAUGAAUCUCAGUACUGUGGUUUGAAAGCAGUUAUGUUG	7.31 ratio
AUGGAACAUUUCGAUGCGUCACUCAGUACCUAUUUCAAGGCCUUCCUAGGCCCUCGAGAUACAAGAGUCAAAGGAUGGUUCCUCCUGGACAAUUAUAUCCCUACGUUUGUCUGUUCUGUU	0.0878 ratio
GAUCAUGAACCACCAUCCAGAAAUGAAAUGAGAUUACCCAGACGAGCCAAAACAGCUGCGCUACAGAAAAAGUAAACUAACCUUGCAGAGUUCCUUAAUGAAGAUACAAGUUAAGAGAGC	0.3 ratio
AGAAAGCAAAACUUGGAAAGAUUUAAGAAAGGAGACGUAAGAUUCUUGAUUUGCACAGAUGUAGCUGCUAGAGGGAUUGAUAUCCAUGGCGUUCCUUAUGUUAUAAACGUCACCCUGCCU	0.305 ratio
CUGAGGAUACCACUGAAGAGACCUUAAAAGGAGUCAUUGAGGGCUCUCGUUCGGGCAGAAUAGUCACUGAUCGGGAAACUGGUUCUUCCAAAGGGUUUGGUUUUGUAGACUUUAAUAGUG	1.04 ratio

Study 4
Target: CCNF, cyclin fold, Cln2 fusion (human)
Technique: yeast growth competition, sequencing
Sample: yeast
Setting: strong parent motif
Reference: not given
Direction: higher = stronger binding
Parent: CDC6 docking peptide (human); TLKGRRLVFDNQL; partner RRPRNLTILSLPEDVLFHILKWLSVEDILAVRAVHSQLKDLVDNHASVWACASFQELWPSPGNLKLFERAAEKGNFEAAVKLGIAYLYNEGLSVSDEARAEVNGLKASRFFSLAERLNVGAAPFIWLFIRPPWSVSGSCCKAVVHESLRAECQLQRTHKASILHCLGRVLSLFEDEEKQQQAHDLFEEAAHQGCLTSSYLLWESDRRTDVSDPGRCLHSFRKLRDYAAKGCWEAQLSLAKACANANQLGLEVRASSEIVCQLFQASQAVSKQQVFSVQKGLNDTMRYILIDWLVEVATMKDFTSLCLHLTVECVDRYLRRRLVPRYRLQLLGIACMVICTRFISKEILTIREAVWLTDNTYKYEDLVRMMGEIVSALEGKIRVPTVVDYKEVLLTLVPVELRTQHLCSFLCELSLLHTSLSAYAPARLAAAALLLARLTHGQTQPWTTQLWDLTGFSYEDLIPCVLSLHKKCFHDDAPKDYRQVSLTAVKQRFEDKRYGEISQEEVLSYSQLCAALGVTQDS
Change	normalised enrichment score
TLKGRRMVFDNQL [L7M]	0.712
TLKGHRLVFDNQL [R5H]	0.952
TLKGRRLVFDNQE [L13E]	8.91
TLKGRRLVFDNQK [L13K]	7.88
TLLGRRLVFDNQL [K3L]	7.52
TLKGRRFVFDNQL [L7F]	0.757
TLKGRRLVFSNQL [D10S]	8.49
TLKRRRLVFDNQL [G4R]	3.54
TLKLRRLVFDNQL [G4L]	0.975
TLPGRRLVFDNQL [K3P]	7.54
TLKGRRLCFDNQL [V8C]	9.24
TLKARRLVFDNQL [G4A]	7.9
TLKGRRLVFDNQQ [L13Q]	8.81
TLKGRRLVFDRQL [N11R]	8.65
TLVGRRLVFDNQL [K3V]	8.35
TLKGRRLVFDLQL [N11L]	8.74
TLKGRRLVFLNQL [D10L]	6.76
TLKGRRQVFDNQL [L7Q]	1.26
TLKGRRLNFDNQL [V8N]	9.46
TLKGRRLVFDEQL [N11E]	7.99
TLRGRRLVFDNQL [K3R]	8.89
TLKGRRLVNDNQL [F9N]	0.173
TLKGRRLWFDNQL [V8W]	8.15
TLKGRRLVFDNGL [Q12G]	8.87
TLKGCRLVFDNQL [R5C]	1.71

Other studies, line by line
Molecule	target	test	system	setting	how to read	quantity	value
PhoQ, residues 284 288 289 292 302 303 SSTMSV	PhoP, residues 12 14 15 18 19 AGCRL (Escherichia coli, UniProt P23836)	Sort-seq, item: YFP reporter	E. coli	PhoQ-PhoP variant library, with: 10 µM Mg2+	reference: high Mg2+ state, higher = stronger signaling	fold induction	1.46

For quick reference, copied from above (study 2):
Change	relative binding score [%]
D75Y	27.2
L94V	2.43
P37Q	3.37
G71K	-1.79
Q167N	4
F124R	3
